Published values of several laboratories.
Parts stem from different laboratories: compare values within a part only. Positions count from the first letter of the parent shown.

Study 1
Target: CCNF, cyclin fold, Cln2 fusion (human)
Technique: yeast growth competition, sequencing
Sample: yeast
Setting: strong parent motif
Reference: not given
Direction: higher = stronger binding
Starting sequence: CDC25A docking peptide (human); PPHRRRLLFACSP
`F9Y`: “normalised enrichment score” 4.42.
`R6V` — result for “normalised enrichment score”: 4.76.
`P1G` — result for “normalised enrichment score”: 6.06.
For `R6L`, “normalised enrichment score” read 4.38.
`L8D` — result for “normalised enrichment score”: 7.8.
For `R5D`, “normalised enrichment score” read 0.592.
Under “normalised enrichment score”, `R4V` is recorded as 6.42.
Under “normalised enrichment score”, `R4A` is recorded as 6.73.
`R6Q`: “normalised enrichment score” 6.61.
For `L7T`, “normalised enrichment score” read 1.78.
For `L8H`, “normalised enrichment score” read 6.68.
`R6F` — result for “normalised enrichment score”: 2.54.
`P2Y` — result for “normalised enrichment score”: 6.35.
`L8W` — result for “normalised enrichment score”: 6.41.
For `L8S`, “normalised enrichment score” read 5.41.
`A10C`: “normalised enrichment score” 7.22.
`L7K` — result for “normalised enrichment score”: 1.94.

Study 2
Target: CREB3L2, bZIP domain (human)
Technique: DHFR protein complementation
Sample: yeast
Setting: single substitutions, most at no-binding floor
Reference: wild-type JUN-FOS pair
Direction: higher = stronger binding
Starting sequence: JUN, bZIP domain (human); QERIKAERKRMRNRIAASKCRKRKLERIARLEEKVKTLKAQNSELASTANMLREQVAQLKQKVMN; partner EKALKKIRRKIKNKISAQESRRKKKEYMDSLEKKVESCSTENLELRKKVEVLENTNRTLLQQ
With `K39V` the binding fitness was -1.47 natural log.
For `A57L`, the binding fitness was -1.54 natural log.
`S47W` gave a binding fitness of -1.42 natural log.
With `E32W` the binding fitness was -1.42 natural log.
For `T37D`, the binding fitness was -1.41 natural log.
`A57E` has a binding fitness of -1.39 natural log.
For `R30E`, the binding fitness was -1.25 natural log.
For `A46Y`, the binding fitness was -1.52 natural log.
For `A29M`, the binding fitness was -1.41 natural log.
With `S43W` the binding fitness was -1.43 natural log.
With `K34H` the binding fitness was -1.51 natural log.
`L38W` has a binding fitness of -1.55 natural log.
With `T48L` the binding fitness was -1.41 natural log.
The binding fitness of `V56L` is reported as -1.31 natural log.
`L38G` has a binding fitness of -1.52 natural log.
For `R30K`, the binding fitness was -1.52 natural log.
For `S43M`, the binding fitness was -1.55 natural log.
`R53N` has a binding fitness of -1.36 natural log.
`E54H` gave a binding fitness of -1.26 natural log.
`E54A` gave a binding fitness of -1.53 natural log.

Study 3
Target: ABI1, truncated, D143A, DHFR fusion (Arabidopsis thaliana)
Technique: DHFR PCA, deep sequencing
Sample: yeast
Setting: methotrexate growth selection, single substitutions
Together with: (+)-ABA 1.4 µM
Reference: wild-type fitted maximum
Direction: higher = stronger binding
Starting sequence: PYL1, truncated, DHFR fusion (Arabidopsis thaliana); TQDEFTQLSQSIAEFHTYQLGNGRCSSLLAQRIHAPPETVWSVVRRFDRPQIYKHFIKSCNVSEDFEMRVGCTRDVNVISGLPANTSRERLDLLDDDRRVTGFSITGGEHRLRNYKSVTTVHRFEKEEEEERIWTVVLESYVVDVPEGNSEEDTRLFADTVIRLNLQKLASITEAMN; partner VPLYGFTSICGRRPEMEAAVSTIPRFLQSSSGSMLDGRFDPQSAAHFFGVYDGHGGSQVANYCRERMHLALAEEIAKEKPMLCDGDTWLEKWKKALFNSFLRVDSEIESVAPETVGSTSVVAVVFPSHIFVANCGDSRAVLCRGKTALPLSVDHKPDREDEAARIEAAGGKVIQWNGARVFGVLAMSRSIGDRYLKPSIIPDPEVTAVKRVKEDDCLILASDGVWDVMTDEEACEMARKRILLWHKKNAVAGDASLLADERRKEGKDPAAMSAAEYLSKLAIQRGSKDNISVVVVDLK
For `K116C`, “relative binding score” read 10.2%.
`D92Q`: “relative binding score” 5.32%.
`K168M` — result for “relative binding score”: 31%.
Under “relative binding score”, `R123Y` is recorded as 20.3%.
`I33F`: “relative binding score” -5.72%.
`N22S` — result for “relative binding score”: 66.5%.
For `R32Q`, “relative binding score” read 40.9%.
`A170I`: “relative binding score” -36.5%.
`G102T` — result for “relative binding score”: -1.14%.
Under “relative binding score”, `C25F` is recorded as -14%.
`Y141D` — result for “relative binding score”: -1.28%.
Under “relative binding score”, `S80C` is recorded as 18.4%.
For `G21T`, “relative binding score” read 54.4%.
`G108D`: “relative binding score” 3.65%.
For `V136K`, “relative binding score” read 7.56%.

Study 4
Target: Phosphate system positive regulatory protein PHO4, full length, GST-tagged (PHO4, Saccharomyces cerevisiae, UniProt P07270, residues 1-312)
Technique: competition protein-binding microarray
Molecule type: double-stranded DNA, one strand shown
Sample: in vitro
Tested at: 2 µM
Setting: whole 60-bp probe, lowest competitor level
Together with: Cbf1 competitor, 0.05 µM
Direction: higher = stronger binding
Shared flanks, not repeated: … GTCTTGATTCGCTTGACGCTGCTG
Target sequence (chain): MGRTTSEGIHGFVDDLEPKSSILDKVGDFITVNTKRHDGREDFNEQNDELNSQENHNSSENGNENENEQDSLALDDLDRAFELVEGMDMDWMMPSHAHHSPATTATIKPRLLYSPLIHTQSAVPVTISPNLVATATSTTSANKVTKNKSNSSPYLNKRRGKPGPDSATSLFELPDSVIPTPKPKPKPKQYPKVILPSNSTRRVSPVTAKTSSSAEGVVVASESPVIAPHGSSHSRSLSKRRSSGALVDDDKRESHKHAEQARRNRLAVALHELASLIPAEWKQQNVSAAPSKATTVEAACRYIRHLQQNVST
`CGTCCTAGTGATTTTCACGTGTAATCCATGAGGAAG` has a fluorescence intensity of 12400 a.u.
The fluorescence intensity of `TTCGAGACGAAGCATCACCTGATGGTAAACTATTGT` is reported as 3850 a.u.
The fluorescence intensity of `CGGGGTTAAGTTTTTCACGTGTGTTGCTTGCAGCAG` is reported as 13000 a.u.
For `AAACTGTCAAGGTTCCTCGTGACTCGGACGAATGTT`, the fluorescence intensity was 8220 a.u.
With `CGCATATTTCCATAGCGCGTGACGGTAAGTACAAGA` the fluorescence intensity was 8790 a.u.
`CGCTACCAACTGCGCCATGTGCCCTGATGACTGTTG` has a fluorescence intensity of 11900 a.u.
With `CGGGGTTAAGTTTTTCACGTGATGTGCTTGCAGCAG` the fluorescence intensity was 11700 a.u.
The fluorescence intensity of `CGGGGTTAAGTTTGAATCGTGGGTGGCTTGCAGCAG` is reported as 7120 a.u.
`TCACAAGAATCAATTGTATTTTTCTAGACTCGCTAA` has a fluorescence intensity of 2650 a.u.
The fluorescence intensity of `AAAGGCCACAAGTTGCGCATGCCTTTTTGCAATGTT` is reported as 8460 a.u.
For `TCAACTTGGGCAGCACACATGCAAAACATCACCCAA`, the fluorescence intensity was 7200 a.u.
The fluorescence intensity of `CAGATCGATTTGATATACGTGGTGAAGCAAAAAGCG` is reported as 5450 a.u.
`CAATGGCTCAGTAACCTCGTGATGGAAAAAGGGAAA` gave a fluorescence intensity of 9390 a.u.
With `CTTTCCCGATCTTGGGCTGTGGGTGTAGCACATTTG` the fluorescence intensity was 4000 a.u.
For `TTTTTCTCGAACGGCCACGTTTGCGTTGTTACATGA`, the fluorescence intensity was 12800 a.u.
`TGCGCAACAACTTGGCAAGTGGGTGTATGTCTAGAA` has a fluorescence intensity of 4800 a.u.
With `CTTCTGTAAATTTGTGCGGTGGGTGGACGCGCCCCG` the fluorescence intensity was 4790 a.u.
The fluorescence intensity of `CTTTCCCGATCTTGTGAAGTGGGTGTAGCACATTTG` is reported as 4390 a.u.
`CGTCCTAGTGATTGTCACAGGACTTCCATGAGGAAG` has a fluorescence intensity of 4300 a.u.

Single results of other studies
Technique: cross-linking MS
`MCM4 (Homo sapiens, UniProt P33991)` — result for cross-linked residues: “K627 to E502” (MCM7 (Homo sapiens, UniProt P33993); cell fractions; together with: DMTMM).
`MYH9 (Homo sapiens, UniProt P35579)` — result for interaction screen: “cross-linked” (MYL6 (Homo sapiens, UniProt P60660); hits only).
`PELP1 (Homo sapiens, UniProt Q8IZL8)` — result for interaction screen: “cross-linked” (WDR18 (Homo sapiens, UniProt Q9BV38); hits only).
`PFN1 (Homo sapiens, UniProt P07737)`: cross-linked residues “T90 to S35” (SEMA4C (Homo sapiens, UniProt Q9C0C4); cell fractions; together with: DSSO).

A few entries again (study 2):
The binding fitness of `V56L` is reported as -1.31 natural log.
For `A29M`, the binding fitness was -1.41 natural log.
For `S43M`, the binding fitness was -1.55 natural log.
`S47W` gave a binding fitness of -1.42 natural log.
`R53N` has a binding fitness of -1.36 natural log.
